{"data": "Results collected from several papers", "organism": "Klebsiella pneumoniae", "note": "Protocols differ between the studies behind these lines. Numbers after ± are the reported error."}
{"Compound": "C[C@@](O)(C(F)F)[C@H](NC(=O)c1ccc(C#CC#CC2CC2)cc1)C(=O)NO", "test": "broth microdilution", "test system": "10031, CAMHB with 50% mouse plasma", "MIC": "0.01 µg/mL"}
{"Compound": "CC[C@H](C)[C@H](NC(=O)[C@H](CC(=O)O)NC(=O)[C@H](Cc1ccccc1)NC(=O)[C@H](CC(C)C)NC(=O)CN)C(=O)N[C@H](C(=O)N[C@@H](CCCCN)C(=O)N[C@@H](CCCCN)C(=O)N[C@H](C(=O)N[C@@H](CC(C)C)C(=O)N[C@@H](CCCCN)C(=O)N[C@@H](CC(C)C)C(=O)N[C@@H](CC(C)C)C(=O)N[C@@H](CCCCN)C(N)=O)C(C)C)C(C)C", "test system": "ATCC 700603, CAMHB", "conditions": "18 h, 37 °C", "MIC": "> 20 µM"}
{"Compound": "CC(C)C[C@@H]1NC(=O)[C@@H](CC(C)C)NC(=O)[C@H](CCN)NC(=O)[C@@H](NC(=O)[C@H](CCN)NC(=O)[C@@H](N)[C@@H](C)O)CCNC(=O)[C@H]([C@@H](C)O)NC(=O)[C@H](CCN)NC(=O)[C@H](CCN)NC1=O", "test": "broth microdilution", "test system": "NDM-1, CAMHB with polysorbate-80", "conditions": "16 h", "MIC": "> 64 µg/mL"}
{"Compound": "CN[C@H](CC(C)C)C(=O)N[C@H]1C(=O)N[C@@H](CC(N)=O)C(=O)N[C@H]2C(=O)N[C@H]3C(=O)N[C@H](C(=O)N[C@H](C(=O)NCc4cn(CCOCCOCCOCCC(=O)N[C@H](C(=O)N[C@@H](CCN)C(=O)N[C@H]5CCNC(=O)[C@H]([C@@H](C)O)NC(=O)[C@H](CCN)NC(=O)[C@H](CCN)NC(=O)[C@H](CC(C)C)NC(=O)[C@@H](CC(C)C)NC(=O)[C@H](CCN)NC5=O)[C@@H](C)O)nn4)c4cc(O)cc(O)c4-c4cc3ccc4O)[C@H](O)c3ccc(c(Cl)c3)Oc3cc2cc(c3O[C@@H]2O[C@H](CO)[C@@H](O)[C@H](O)[C@H]2O[C@H]2C[C@](C)(N)[C@H](O)[C@H](C)O2)Oc2ccc(cc2Cl)[C@H]1O", "test": "broth microdilution", "test system": "ATCC 27736", "conditions": "18 to 20 h, 37 °C, 0.002% polysorbate 80", "MIC": "64 µg/mL"}
{"Compound": "COc1ccc2ccc3c(c2c1)C=[N+]1C2CCCCC2[N+]2=Cc4ccc(C)cc4[O][Au-]21[O]3.F[P-](F)(F)(F)(F)F (stereo not shown)", "test": "bacterial growth, broth microdilution", "test system": "carbapenem-resistant clinical isolate", "conditions": "24 h", "MIC": "> 20 µM"}
{"Compound": "CC(C)[C@H](NC(=O)[C@H](CCCCN)NC(=O)[C@H](CCCNC(=N)N)NC(=O)[C@@H](NC(=O)[C@H](C)NC(=O)[C@H](CC(N)=O)NC(=O)[C@H](CCCNC(=N)N)NC(=O)[C@@H](NC(=O)[C@H](CCCCN)NC(=O)[C@H](CCCCN)NC(=O)[C@@H](NC(=O)[C@@H](NC(=O)[C@H](CCCNC(=N)N)NC(=O)[C@H](CCCNC(=N)N)NC(=O)[C@H](Cc1c[nH]c2ccccc12)NC(=O)[C@H](Cc1c[nH]c2ccccc12)NC(=O)CN)[C@@H](C)O)C(C)C)C(C)C)C(C)C)C(=O)O", "test system": "clinical strain", "conditions": "18 h, 37 °C", "MIC": "64 µg/mL"}
{"Compound": "CC(C)C[C@H](NC(=O)[C@H](Cc1ccc(O)cc1)NC(=O)[C@@H]1CCCN1C(=O)[C@H](CCCNC(=N)N)NC(=O)[C@@H]1CCCN1C(=O)[C@H](CCCCN)NC(=O)[C@H](CC(=O)O)NC(=O)[C@@H]1CCCN1C(=O)[C@H](CCCNC(=N)N)NC(=O)C1(N)CCCCC1)C(=O)N1CCC[C@H]1C(=O)N[C@@H](CCCNC(=N)N)C(=O)N1CCC[C@H]1C(=O)N[C@@H](CCCNC(=N)N)C(=O)N1CCC[C@H]1C(=O)N1CCC[C@H]1C(=O)N[C@@H](CCCNC(=N)N)C(=O)N1CCC[C@H]1C(=O)N[C@H](C(=O)N[C@@H](CCCNC(=N)N)C(=O)N[C@@H](CSc1c(F)c(F)c(-c2c(F)c(F)c(SC[C@H](NC(=O)[C@H](CCCNC(=N)N)NC(=O)[C@@H](NC(=O)[C@@H]3CCCN3C(=O)[C@H](CCCNC(=N)N)NC(=O)[C@@H]3CCCN3C(=O)[C@@H]3CCCN3C(=O)[C@H](CCCNC(=N)N)NC(=O)[C@@H]3CCCN3C(=O)[C@H](CCCNC(=N)N)NC(=O)[C@@H]3CCCN3C(=O)[C@H](CC(C)C)NC(=O)[C@H](Cc3ccc(O)cc3)NC(=O)[C@@H]3CCCN3C(=O)[C@H](CCCNC(=N)N)NC(=O)[C@@H]3CCCN3C(=O)[C@H](CCCCN)NC(=O)[C@H](CC(=O)O)NC(=O)[C@@H]3CCCN3C(=O)[C@H](CCCNC(=N)N)NC(=O)C3(N)CCCCC3)C(C)C)C(=O)NN)c(F)c2F)c(F)c1F)C(=O)NN)C(C)C", "test": "bacterial growth", "test system": "ATCC 13883, 100% Mueller-Hinton broth", "conditions": "90 min, 37 °C, strain ATCC 13883", "MIC": "2.8 ± 0.9 µg/mL"}
{"Compound": "COc1ccc2ccc3c(c2c1)C=[N+]1C2CCCCC2[N+]2=Cc4cc(C(C)(C)C)ccc4[O][Au-]21[O]3.F[P-](F)(F)(F)(F)F (stereo not shown)", "test": "bacterial growth, broth microdilution", "test system": "carbapenem-resistant", "conditions": "24 h", "MIC": "10 µM"}
{"Compound": "Oc1ccc(Cl)cc1-c1nc2c(C(F)(F)F)cc(C(F)(F)F)cc2[nH]1", "test system": "B9", "MIC": "> 200 µM"}
{"Compound": "COc1ccc2ccc3c(c2c1)C=[N+]1C2CCCCC2[N+]2=Cc4c(OC)cccc4[O][Au-]21[O]3.F[P-](F)(F)(F)(F)F (stereo not shown)", "test": "bacterial growth, broth microdilution", "test system": "carbapenem-resistant clinical isolate", "conditions": "24 h", "MIC": "> 20 µM"}
{"Compound": "CC[C@H](C)[C@H](NC(=O)[C@@H](CCCNC(=N)N)NC(=O)[C@H](CCCNC(=N)N)NC(=O)[C@@H]1CCCN1C(=O)[C@H](Cc1c[nH]c2ccccc12)NC(=O)[C@H](CCCNC(=N)N)NC(=O)[C@@H]1CCCN1C(=O)[C@H](CCCNC(=N)N)NC(=O)[C@@H]1CCCN1C(=O)[C@H](CC(C)C)NC(=O)[C@H](Cc1ccc(O)cc1)NC(=O)[C@@H]1CCCN1C(=O)[C@@H]1CCCN1C(=O)[C@H](CCCCN)NC(=O)[C@H](CC(=O)O)NC(=O)[C@@H](N)C(C)C)C(=O)N[C@@H](Cc1ccc(O)cc1)C(=O)N[C@@H](CC(N)=O)C(=O)N[C@H](CCCNC(=N)N)C(N)=O", "test": "broth microdilution", "test system": "DSM 681", "conditions": "18 h", "MIC": "4 µg/mL"}
{"Compound": "COc1ccc2ccc3c(c2c1)C=[N+]1C2CCCCC2[N+]2=Cc4ccc(F)cc4[O][Au-]21[O]3.F[P-](F)(F)(F)(F)F (stereo not shown)", "test": "bacterial growth, broth microdilution", "test system": "carbapenem-resistant", "conditions": "24 h", "MIC": "10 µM"}
{"Compound": "CC[C@H](C)[C@H](NC(=O)[C@H](C)NC(=O)[C@@H](NC(=O)[C@H](CC(=O)O)NC(=O)[C@H](CCCCN)NC(=O)[C@H](CO)NC(=O)[C@@H](NC(=O)[C@H](CC(N)=O)NC(=O)[C@H](C)NC(=O)[C@@H](NC(=O)[C@H](CCC(=O)O)NC(=O)[C@H](CCCCN)NC(=O)[C@@H](NC(=O)[C@@H](NC(=O)[C@H](Cc1c[nH]cn1)NC(=O)[C@H](CCCCN)NC(=O)[C@@H](NC(=O)[C@H](CCCCN)NC(=O)[C@H](CCCCN)NC(=O)[C@@H](NC(=O)[C@H](CC(C)C)NC(=O)[C@H](CCCCN)NC(=O)[C@H](CC(N)=O)NC(=O)[C@H](Cc1ccccc1)NC(=O)[C@H](CCCNC(=N)N)NC(=O)[C@H](CCCCN)NC(=O)[C@H](CCCNC(=N)N)NC(=O)[C@H](Cc1ccccc1)NC(=O)CN)C(C)C)C(C)C)[C@@H](C)O)[C@@H](C)CC)[C@@H](C)O)C(C)C)C(C)C)C(=O)N[C@H](C(=O)N[C@@H](C)C(=O)NCC(=O)N[C@@H](CO)C(=O)NCC(=O)N[C@H](C(=O)N[C@@H](C)C(=O)N[C@H](C(=O)NCC(=O)N[C@@H](C)C(=O)N[C@@H](C)C(=O)N[C@@H](CCSC)C(N)=O)C(C)C)C(C)C)C(C)C", "test": "broth microdilution", "test system": "DSM 30104, CAMHB", "MIC": "4 µg/mL"}
